# Measurements pooled from the literature.
# Every numbered part comes from another study and shows a few of its results, in no order. Changes are numbered by the printed parent chain.

# Block 1
# Target: CCNB3, cyclin fold, Cln2 fusion (human)
# Method: yeast growth competition, sequencing
# Matrix: yeast
# Notes: weak parent motif
# Relative to: not given
# Reading: higher = stronger binding
# Parent: MICAL3 docking peptide (human); LQLRRQLSFSEDS; partner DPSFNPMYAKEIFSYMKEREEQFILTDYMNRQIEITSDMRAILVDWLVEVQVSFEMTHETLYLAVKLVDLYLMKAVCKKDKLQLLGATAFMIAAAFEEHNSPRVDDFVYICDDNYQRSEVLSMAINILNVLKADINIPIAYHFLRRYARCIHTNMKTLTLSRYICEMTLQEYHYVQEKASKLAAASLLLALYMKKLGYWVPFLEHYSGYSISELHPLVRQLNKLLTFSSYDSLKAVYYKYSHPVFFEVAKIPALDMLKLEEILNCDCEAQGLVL
Variant,normalised enrichment score
L3A,0.336
D12G,-0.0212
S8T,0.222
Q6T,1.85
Q2T,0.0779
Q6I,0.541
R5I,0.0279
S10H,-0.118

# Block 2
# Target: RING finger protein unkempt homolog, zinc fingers 1-6, GST-SBP tag (UNK, Homo sapiens, UniProt Q9C0B0, residues 30-357)
# Sequence of UniProt Q9C0B0 (30-357, looked up): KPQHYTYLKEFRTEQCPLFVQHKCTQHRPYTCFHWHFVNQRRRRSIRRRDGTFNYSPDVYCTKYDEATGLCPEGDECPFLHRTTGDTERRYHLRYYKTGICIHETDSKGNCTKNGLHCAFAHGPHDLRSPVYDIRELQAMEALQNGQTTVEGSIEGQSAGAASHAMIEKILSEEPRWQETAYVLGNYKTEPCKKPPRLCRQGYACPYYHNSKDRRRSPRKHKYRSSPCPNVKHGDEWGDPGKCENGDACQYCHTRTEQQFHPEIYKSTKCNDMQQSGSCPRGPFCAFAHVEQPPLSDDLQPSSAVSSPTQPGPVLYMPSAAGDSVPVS
# Method: RNA Bind-n-Seq
# Molecule type: RNA
# Matrix: in vitro
# Concentration: not given
# Notes: RNA with constant flanks, human-mouse chimeric sites, ends assumed
# Relative to: input RNA pool
# Reading: higher = stronger binding
Strand,bound/input enrichment [ratio]
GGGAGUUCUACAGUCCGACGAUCGGAAGUACAAUGAUGGAGAUUGAUGGUGACAAAGGCAAGCAGGGCGGGCCCACCUACUACAUAGACACCAAUGCCCUCCGCGUGCCCAGGGAGAAUAUGGAGGCCAUUUCACCUCUAAAGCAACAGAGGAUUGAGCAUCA,0.219
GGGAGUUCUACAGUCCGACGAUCAUUGUUGAAGCGAAUCCACUUUUAGAAGCCUUUGGAAAUGCAAAGACUGUUCGCAACAAUAAUAGCAGUCGAUUUGGGAAAUUUGUAGAAAUUCAUUUCAAUGAAAAGAGUUCGGUUGUUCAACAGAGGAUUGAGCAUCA,0.346
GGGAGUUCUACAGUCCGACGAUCGAAUCCUACUCAGGCGGAUUUUGCAACCUGAAUGCAACAGCAGCAGCAUCUUAGUCACAGUUAGGUAGUUUUGGGGCUCUGUGGCCAGGGUUUUAUUCACAUGCAGGUUUGGAAAAUGUACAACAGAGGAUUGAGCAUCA,2.97
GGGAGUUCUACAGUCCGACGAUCGGACAUCUGUCAAAUUGUUAUGUUCCUAAAAACGUAGUGAACACUCUGAUACACUUCAUUUAGUUGUACAUCUGUAUGAUAGAGAAAUGUAAAUAUGUUAAUCCAAGCAAUGUGUCACUUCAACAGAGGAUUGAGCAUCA,0.347
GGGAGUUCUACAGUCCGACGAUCCUGUUUUGACAGCCACACAAUCUUGGCAUGUAUUAAGAAAAAAAAAAAUCCCUGUUCAAGUAGUUUUUCCACCUAUCAGCACUGAGUAAAUGCCAUAACUCCGCGGAAAUGGUCUAAAUACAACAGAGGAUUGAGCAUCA,0.324
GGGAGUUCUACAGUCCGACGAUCCUCAUGGCUGCAGAAACAGGAAGUGGCAAAACUGGUGCAUUUAGUAUUCCCGUUAUCCAGAUAGUGUAUGAAACUCUGAAAGACCAACAGGAAGGCAAGAAAGGGAAAACAACUAUUAAACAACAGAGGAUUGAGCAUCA,0.731

# Block 3
# Target: Centromere-binding protein 1, full length, N-terminal tag (CBF1, Saccharomyces cerevisiae, UniProt P17106, residues 1-351)
# Sequence of UniProt P17106 (whole entry, looked up): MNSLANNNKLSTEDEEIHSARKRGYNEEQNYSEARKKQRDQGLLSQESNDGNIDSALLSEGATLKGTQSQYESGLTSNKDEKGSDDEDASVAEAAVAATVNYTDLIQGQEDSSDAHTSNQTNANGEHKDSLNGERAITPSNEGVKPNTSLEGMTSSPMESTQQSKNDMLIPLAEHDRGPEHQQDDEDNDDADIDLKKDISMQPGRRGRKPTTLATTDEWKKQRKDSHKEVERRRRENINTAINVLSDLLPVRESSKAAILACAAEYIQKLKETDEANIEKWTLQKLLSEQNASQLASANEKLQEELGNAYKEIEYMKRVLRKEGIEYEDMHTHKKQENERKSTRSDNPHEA
# Method: protein-binding microarray
# Molecule type: double-stranded DNA, one strand shown
# Matrix: in vitro
# Concentration: 0.8 µM
# Notes: whole 60-bp probe, no competitor
# Reading: higher = stronger binding
Strand,fluorescence intensity
GAATATCAGGCGGGTCACCTTTAGAAGGAACAATAGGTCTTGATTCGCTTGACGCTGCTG,552 a.u.
CTATAGTTTGTCGCTGGTCACGTGCGACAATGCTTCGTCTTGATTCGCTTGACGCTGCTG,16800 a.u.
CTATTCAAACCATGTGACACCAAACTTCGCAATTTCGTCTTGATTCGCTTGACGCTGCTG,6250 a.u.
GAAACTATTGCTCAGCACGACCAACTATAGCTCTAGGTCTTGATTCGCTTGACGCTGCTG,549 a.u.
CTAATAAAAACAAGCAAGGTGATCGTCAAACTGTTCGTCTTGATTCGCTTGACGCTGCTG,555 a.u.
GAATCAACTTACTAACAGGTGACCTTATCGGTCTAGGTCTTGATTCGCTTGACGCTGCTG,1480 a.u.
GAATTAAAACGGTATCACGTTTAAATATGTGACTAGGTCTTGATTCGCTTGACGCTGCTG,1320 a.u.
GAAGTTTGAATTTCTTGCATCAGGTACTGAAGCTAGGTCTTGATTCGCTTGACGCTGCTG,508 a.u.
GAAATCATCATTATCATCACCATCACACCGCGCTAGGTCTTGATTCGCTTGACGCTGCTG,530 a.u.
GAATTGAGGAGAGACATGATGATGGTTCTCTGGTAGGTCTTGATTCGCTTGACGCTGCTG,536 a.u.

# Further values, each from its own experiment
Molecule,target,assay,system,conditions,how to read,measurement,result
"PhoQ, residues 284 288 289 292 302 303 ASVMEA","PhoP, residues 12 14 15 18 19 TQAIL (Escherichia coli, UniProt P23836)","Sort-seq, measured: YFP reporter",E. coli,"PhoQ-PhoP variant library, together with: 10 µM Mg2+","relative to: high Mg2+ state, higher = stronger signaling",fold induction,3.32

# A few entries again (block 2):
Strand,bound/input enrichment [ratio]
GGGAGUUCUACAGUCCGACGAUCGAAUCCUACUCAGGCGGAUUUUGCAACCUGAAUGCAACAGCAGCAGCAUCUUAGUCACAGUUAGGUAGUUUUGGGGCUCUGUGGCCAGGGUUUUAUUCACAUGCAGGUUUGGAAAAUGUACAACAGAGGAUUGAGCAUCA,2.97
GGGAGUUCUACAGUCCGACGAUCAUUGUUGAAGCGAAUCCACUUUUAGAAGCCUUUGGAAAUGCAAAGACUGUUCGCAACAAUAAUAGCAGUCGAUUUGGGAAAUUUGUAGAAAUUCAUUUCAAUGAAAAGAGUUCGGUUGUUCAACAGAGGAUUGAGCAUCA,0.346
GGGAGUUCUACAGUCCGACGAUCGGAAGUACAAUGAUGGAGAUUGAUGGUGACAAAGGCAAGCAGGGCGGGCCCACCUACUACAUAGACACCAAUGCCCUCCGCGUGCCCAGGGAGAAUAUGGAGGCCAUUUCACCUCUAAAGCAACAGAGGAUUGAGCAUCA,0.219
